Assay results gathered from unrelated publications.
Lines come from different studies, so protocols differ. Numbers after ± are the reported error. In brackets after ≈: the same amount, converted by molar mass.
UniProt P20309, sequence (whole entry, looked up): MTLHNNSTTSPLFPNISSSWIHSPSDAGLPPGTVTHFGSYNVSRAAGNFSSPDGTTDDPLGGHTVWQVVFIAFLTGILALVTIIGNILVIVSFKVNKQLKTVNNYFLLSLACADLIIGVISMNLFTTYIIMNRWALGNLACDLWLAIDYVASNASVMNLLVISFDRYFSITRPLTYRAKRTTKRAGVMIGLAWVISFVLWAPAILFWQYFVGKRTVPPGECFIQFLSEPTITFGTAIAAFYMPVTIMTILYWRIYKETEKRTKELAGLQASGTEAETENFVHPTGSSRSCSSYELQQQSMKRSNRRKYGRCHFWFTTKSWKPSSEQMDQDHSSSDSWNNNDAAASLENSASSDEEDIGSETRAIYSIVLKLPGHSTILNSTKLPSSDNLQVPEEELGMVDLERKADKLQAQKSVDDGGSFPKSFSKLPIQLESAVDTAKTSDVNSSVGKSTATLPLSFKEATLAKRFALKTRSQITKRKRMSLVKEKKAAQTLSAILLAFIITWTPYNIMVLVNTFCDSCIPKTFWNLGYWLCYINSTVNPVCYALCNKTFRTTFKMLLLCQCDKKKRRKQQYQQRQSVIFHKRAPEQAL
UniProt P11229, sequence (whole entry, looked up): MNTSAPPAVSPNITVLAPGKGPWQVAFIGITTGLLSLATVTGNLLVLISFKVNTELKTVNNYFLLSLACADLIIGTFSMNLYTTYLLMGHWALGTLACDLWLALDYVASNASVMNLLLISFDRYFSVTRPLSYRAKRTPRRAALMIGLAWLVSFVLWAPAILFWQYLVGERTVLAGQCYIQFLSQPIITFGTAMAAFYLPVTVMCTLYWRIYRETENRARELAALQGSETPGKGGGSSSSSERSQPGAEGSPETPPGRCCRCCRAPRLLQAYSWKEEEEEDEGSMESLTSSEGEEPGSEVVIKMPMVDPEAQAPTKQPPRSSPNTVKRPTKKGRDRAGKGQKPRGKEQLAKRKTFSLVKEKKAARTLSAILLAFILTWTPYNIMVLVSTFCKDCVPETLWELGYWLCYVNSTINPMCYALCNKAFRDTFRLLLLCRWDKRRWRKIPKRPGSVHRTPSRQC

`CCOC(=O)C(NC(=O)CN1C(=O)N/C(=C\c2ccc3c(c2)OCO3)C1=O)C(C)C` (centres unmarked) has an IC50 of > 100 µM (Leishmania major; parasite growth, resazurin; promastigote).
The growth inhibition of `CNC1=C([N+](=O)[O-])C2(C(=O)Nc3ccc([N+](=O)[O-])cc32)C2=C(CCCC2=O)O1` (centres unmarked) is reported as 33.1% (Enterococcus faecalis; MTCC 439; 250 µg/mL, 24 h).
For `CN(C)c1cc(CNCC(N)=O)c(O)c2c1C[C@H]1C[C@H]3[C@H](N(C)C)C(O)=C(C(N)=O)C(=O)[C@@]3(O)C(O)=C1C2=O`, the MIC was 8 µg/mL (≈ 14.7 µM) (Enterococcus faecalis; microbial growth, broth dilution).
The Kb of `CCCCCCOc1ccc(C(=O)OCC[N+]2(C)CC=CCC2)cc1` (centres unmarked) is reported as 0.0794 µM (CHRM3 (Homo sapiens, UniProt P20309); inositol phosphate accumulation, antagonist, Schild analysis; CHO; with: carbachol).
With `CC/C(=C\c1ccc(OCC(=O)NC(C(=O)N2CCSCC2)c2ccccc2)cc1)[N+](=O)[O-]` (centres unmarked) the inhibition was 77.9% (Leishmania donovani; parasite growth, MTT; 100 µM, 48 h, promastigote).
`CC[C@H]1[C@@H](O)[C@@H]2[C@H](CC[C@]3(C)[C@@H]([C@H](C)CCOS(=O)(=O)[O-])CC[C@@H]23)[C@@]2(C)CC[C@@H](O)C[C@@H]12.[Na+]` has a plasma triglycerides of 0.6 ± 0.1 mmol/L (ob/ob NASH mice, plasma; oral, 10 mg/kg once daily, 8 wk).
`CCOC(=O)C(CC)NC(=O)CN1C(=O)S/C(=C\c2ccc(C)cc2)C1=O` (centres unmarked) has an IC50 of 5.29 µM (Leishmania major; parasite growth; 24 h, intracellular, amastigote).
With `Oc1c(Br)cc(Br)c2nc3c(C(F)(F)F)cc(C(F)(F)F)cc3nc12` the MBEC was 1.56 µM (Staphylococcus aureus; Calgary Biofilm Device; MRSA 1707; biofilm).
Under “reduction in biofilm biomass”, `CCCCCCCCCc1nc2cc(Cl)ccc2c(=O)n1CCCN` is recorded as > 95% (Pseudomonas aeruginosa, Staphylococcus aureus; mixed biofilm; 100 µM, with: tobramycin 100 µg/mL).
For `NS(=O)(=O)c1ccc(NC(=O)NN[C@@H]2O[C@H](CO)[C@@H](O)[C@H](O)[C@H]2O)cc1`, the hemolysis was 0% (rabbit erythrocytes; 64 µg/mL, 3 h; reference: complete lysis).
With `CN(C)c1cc(CNC2CCCCC2)c(O)c2c1C[C@H]1C[C@H]3[C@H](N(C)C)C(O)=C(C(N)=O)C(=O)[C@@]3(O)C(O)=C1C2=O` the MIC was 1 µg/mL (≈ 1.76 µM) (Enterococcus faecalis; JH2-2(pMV158), Tet L efflux).
`COc1ccc2c(oc3c4ccc(O)cc4oc(=O)c23)c1CC=C(C)C` — result for antibacterial activity: “inactive” (Enterococcus faecalis; ATCC 29212; concentration not given).
With `CCOC(=O)C(CC)NC(=O)CN1C(=O)S/C(=C\c2ccc([N+](=O)[O-])cc2)C1=O` (centres unmarked) the IC50 was > 10 µM (Leishmania major; parasite growth; 72 h, intracellular, amastigote).
`CC(=O)Nc1ccc(NC(=O)c2[nH]c3cc(C)sc3c2CN2CCOCC2)cc1` has an IC50 of > 10 µM (Giardia duodenalis; parasite growth; 48 h).
For `CC1(CCCCCCCCCCCCOCCCOP(=O)(O)CO[C@H](CO)Cn2ccc(N)nc2=O)COC1`, the selectivity index was 72 (human alphaherpesvirus 3; HFF, Ellen; reference: CC50 over EC50).
The PI-positive bacteria of `CC(C)C[C@H](NC(=O)[C@H](Cc1ccc(O)cc1)NC(=O)[C@@H]1CCCN1C(=O)[C@H](CCCNC(=N)N)NC(=O)[C@@H]1CCCN1C(=O)[C@H](CCCCN)NC(=O)[C@H](CC(=O)O)NC(=O)[C@@H]1CCCN1C(=O)[C@H](CCCNC(=N)N)NC(=O)C1(N)CCCCC1)C(=O)N1CCC[C@H]1C(=O)N[C@@H](CCCNC(=N)N)C(=O)N1CCC[C@H]1C(=O)N[C@@H](CCCNC(=N)N)C(=O)N1CCC[C@H]1C(=O)N1CCC[C@H]1C(=O)N[C@@H](CCCNC(=N)N)C(=O)N1CCC[C@H]1C(=O)N[C@H](C(=O)N[C@@H](CCCNC(=N)N)C(=O)N[C@@H](CSc1c(F)c(F)c(SC[C@H](NC(=O)[C@H](CCCNC(=N)N)NC(=O)[C@@H](NC(=O)[C@@H]2CCCN2C(=O)[C@H](CCCNC(=N)N)NC(=O)[C@@H]2CCCN2C(=O)[C@@H]2CCCN2C(=O)[C@H](CCCNC(=N)N)NC(=O)[C@@H]2CCCN2C(=O)[C@H](CCCNC(=N)N)NC(=O)[C@@H]2CCCN2C(=O)[C@H](CC(C)C)NC(=O)[C@H](Cc2ccc(O)cc2)NC(=O)[C@@H]2CCCN2C(=O)[C@H](CCCNC(=N)N)NC(=O)[C@@H]2CCCN2C(=O)[C@H](CCCCN)NC(=O)[C@H](CC(=O)O)NC(=O)[C@@H]2CCCN2C(=O)[C@H](CCCNC(=N)N)NC(=O)C2(N)CCCCC2)C(C)C)C(=O)NN)c(F)c1F)C(=O)NN)C(C)C` is reported as 50 to 60% (Acinetobacter baumannii; inner membrane permeabilization, PI/SYTO flow cytometry; 1 × MBC).
With `COc1cc(OC)c2c(c1)C(=O)c1cc3oc(=O)cc(-c4ccc(Cl)cc4)c3c(O)c1C2=O` the inhibition zone was 15 mm (Klebsiella aerogenes; microbial growth, disc diffusion; 100 µg/disc).
`CCC(NC(=O)CN1C(=O)N/C(=C\c2ccc(C)cc2)C1=O)C(=O)OC` (centres unmarked) has an IC50 of 4.87 µM (Leishmania donovani; parasite growth; 24 h, intracellular, amastigote).
`c1ccc(CN2CCOCCOCCN(CCCCCCCCCCCCCCN3CCOCCOCCN(CCCCCCCCCCCCCCN4CCOCCOCCN(Cc5ccccc5)CCOCCOCC4)CCOCCOCC3)CCOCCOCC2)cc1` gave a potassium release of 40% (Escherichia coli; K+ selective electrode; tetracycline-resistant; 4 µM, 10 min; reference: total).
For `CN(C)c1cc(CNCc2ccc(O)cc2)c(O)c2c1C[C@H]1C[C@H]3[C@H](N(C)C)C(O)=C(C(N)=O)C(=O)[C@@]3(O)C(O)=C1C2=O`, the MIC was 4 µg/mL (≈ 6.75 µM) (Enterococcus faecalis; microbial growth, broth dilution).
For `CCOC(=O)C(CC)NC(=O)CN1C(=O)S/C(=C\c2ccc(OC)cc2)C1=O` (centres unmarked), the IC50 was > 10 µM (Leishmania major; parasite growth; 72 h, intracellular, amastigote).
Under “inhibition zone diameter”, `CC(=O)[O-].O.O.O.O.[Ni+2].[O-]c1ccc(Br)cc1C=NCCN1CCOCC1` is recorded as 26 mm (Mucor indicus; 20 µL of 100 µM per disc).
`O=Cc1c(O)ccc2ccccc12`: “log2 fold change” -3.03 (HUVEC; RNA sequencing, measured: NES; 75 µM, 24 h; reference: DMSO).
`CC(C)(C)NCC(SS(=O)(=O)O)c1ccccc1` (centres unmarked): “female worm burden reduction” 89% (Schistosoma mansoni; mice; oral, 600 mg/kg single dose, 15 days post-infection; reference: vehicle).
`CCCC[C@H](NC(=O)CNC(=O)CNC(=O)CN1CCN(CC(=O)O)CCN(CC(=O)O)CCN(CC(=O)O)CC1)C(=O)N[C@H]1CC(=O)NCCCC[C@@H](C(N)=O)NC(=O)[C@H](Cc2c[nH]c3ccccc23)NC(=O)[C@H](CCCNC(=N)N)NC(=O)[C@@H](Cc2ccccc2)NC(=O)[C@H](Cc2c[nH]cn2)NC1=O` [lutetium-177 labelled] has a tissue uptake of 0.47 ± 0.13 %ID (C57 mouse, female, intestines; intravenous, 0.037 MBq, 24 h).
With `COc1ccc(-c2nc(-c3ccccc3OC)[nH]c2-c2ccc(OC)cc2)cc1` the worm killing was 0% (Schistosoma mansoni; female worms; 25 µM).
The tissue uptake of `CCCC[C@H](NC(=O)COCCOCCNC(=O)CN1CCN(CC(=O)O)CCN(CC(=O)O)CC1)C(=O)N[C@H]1CC(=O)NCCCC[C@@H](C(N)=O)NC(=O)[C@H](Cc2c[nH]c3ccccc23)NC(=O)[C@H](CCCNC(=N)N)NC(=O)[C@@H](Cc2ccccc2)NC(=O)[C@H](Cc2c[nH]cn2)NC1=O` [copper-64 labelled] is reported as 1.63 ± 0.26 %ID (C57 mice, intestine; intravenous, 0.37 MBq, 4 h).
The IC50 of `CCOC(=O)C(C)NC(=O)CN1C(=O)S/C(=C\c2ccc(F)cc2)C1=O` (centres unmarked) is reported as > 10 µM (Leishmania major; parasite growth; 72 h, intracellular, amastigote).
For `COc1ccc(CNC(=O)c2[nH]c3cc(C)sc3c2CN2CCOCC2)cc1`, the IC50 was > 10 µM (Giardia duodenalis; parasite growth; 48 h).
For `N=C(N)NCCC[C@@H]1NC(=O)[C@H](CCCCNC(=O)CC[C@H](NC(=O)CC[C@H](NC(=O)CN2CCN(CC(=O)O)CCN(CC(=O)O)CCN(CC(=O)O)CC2)C(=O)N[C@@H](CCC(=O)NCCCC[C@@H]2NC(=O)[C@@H](Cc3ccccc3)NC(=O)[C@H](CC(=O)O)NC(=O)CNC(=O)[C@H](CCCNC(=N)N)NC2=O)C(=O)NCCCC[C@@H]2NC(=O)[C@@H](Cc3ccccc3)NC(=O)[C@H](CC(=O)O)NC(=O)CNC(=O)[C@H](CCCNC(=N)N)NC2=O)C(=O)NCCCC[C@@H]2NC(=O)[C@@H](Cc3ccccc3)NC(=O)[C@H](CC(=O)O)NC(=O)CNC(=O)[C@H](CCCNC(=N)N)NC2=O)NC(=O)[C@@H](Cc2ccccc2)NC(=O)[C@H](CC(=O)O)NC(=O)CNC1=O` [indium-111 labelled], the tissue uptake was 0.68 ± 0.31 %ID/g (female athymic nu/nu mice, muscle; intravenous, 111 kBq, 72 h).
With `Cc1cc2[nH]c(C(=O)NCCCN3CCCC3=O)c(CN3CCOCC3)c2s1` the IC50 was > 10 µM (Giardia duodenalis; parasite growth; 48 h).
For `[64Cu+2].c1cnc(CNCc2ccc(CN3CCCN4CCNCCCN(CC4)CC3)cc2)nc1`, the tissue uptake was 5.69 ± 0.23 %ID/g (CXCR4; NOD/SCID mouse, U87 and U87-stb-CXCR4 xenografts, lungs; iv, 450 min, ex vivo).
Under antibacterial activity, `O=C(CCC(=O)[c-]1cccc1)NCCN(CC(=O)Nc1ccc(I)cc1)C(=O)CCc1cn(Cc2ccccc2)nn1.[C-]#[O+].[C-]#[O+].[C-]#[O+].[Mn+]` is recorded as “inactive” (Bacillus subtilis, Staphylococcus aureus; MIC; including MRSA; up to 512 µg/mL).
With `COCCCNC(=O)c1[nH]c2cc(C)sc2c1CN1CCCCC1` the IC50 was > 10 µM (Giardia duodenalis; parasite growth; 48 h).
`Cc1cc(O)cc2c1C(=O)c1c(cc3oc(=O)cc(-c4ccc(Cl)cc4)c3c1O)C2=O` gave an inhibition zone of 32 mm (Klebsiella aerogenes; microbial growth, disc diffusion; 100 µg/disc).
With `N=C(N)NCCC[C@@H]1NC(=O)[C@H](CCCCNC(=O)CNC(=O)CNC(=O)CNC(=O)CC[C@H](NC(=O)CNC(=O)CNC(=O)CNC(=O)CC[C@H](NC(=O)CN2CCN(CC(=O)O)CCN(CC(=O)O)CCN(CC(=O)O)CC2)C(=O)NCC(=O)NCC(=O)NCC(=O)N[C@@H](CCC(=O)NCC(=O)NCC(=O)NCC(=O)NCCCC[C@@H]2NC(=O)[C@@H](Cc3ccccc3)NC(=O)[C@H](CC(=O)O)NC(=O)CNC(=O)[C@H](CCCNC(=N)N)NC2=O)C(=O)NCC(=O)NCC(=O)NCC(=O)NCCCC[C@@H]2NC(=O)[C@@H](Cc3ccccc3)NC(=O)[C@H](CC(=O)O)NC(=O)CNC(=O)[C@H](CCCNC(=N)N)NC2=O)C(=O)NCC(=O)NCC(=O)NCC(=O)NCCCC[C@@H]2NC(=O)[C@@H](Cc3ccccc3)NC(=O)[C@H](CC(=O)O)NC(=O)CNC(=O)[C@H](CCCNC(=N)N)NC2=O)NC(=O)[C@@H](Cc2ccccc2)NC(=O)[C@H](CC(=O)O)NC(=O)CNC1=O` [indium-111 labelled] the tissue uptake was 6.21 ± 0.65 %ID/g (female athymic nu/nu mice, kidney; intravenous, 4 h).
`CCCCCCOc1ccc(C(=O)OCCN2CC=CCC2)cc1` gave a Kb of 0.0331 µM (CHRM1 (Homo sapiens, UniProt P11229); inositol phosphate accumulation, antagonist, Schild analysis; CHO; with: carbachol).
`CCOC(=O)C(C)NC(=O)CN1C(=O)N/C(=C\c2ccc(C)cc2)C1=O` (centres unmarked) has an IC50 of > 10 µM (Leishmania major; parasite growth; 72 h, intracellular, amastigote).
`Cc1cccc2c1N(C(=O)n1ccnn1)CC2` — result for “germination inhibition concentration”: > 30 µM (Arabidopsis thaliana; wild type; ambient temperature).
For `CS(C)=O.CS(C)=O.[Cl][Cu][Cl].c1ccc(-c2nnc(-c3ccc4c(c3)OCO4)[nH]2)nc1`, “activated caspase-9 cells” read 44.6% (T24; FITC-LEHD-FMK flow cytometry; 5.3 µM, 24 h).
`COC1C=COC2(C)Oc3c(C)c(O)c4c(c3C2=O)C2=NC3(CCN(CC(C)C)CC3)NC2=C(NC(=O)C(C)=CC=CC(C)C(O)C(C)C(O)C(C)C(OC(=O)c2cccnc2)C1C)C4=O` (centres unmarked) gave an MBC of 0.05 µM (≈ 0.0455 µg/mL) (Mycobacteroides abscessus; ATCC 19977; 1-log kill, replicating cultures).

For quick reference, copied from above:
Under antibacterial activity, `O=C(CCC(=O)[c-]1cccc1)NCCN(CC(=O)Nc1ccc(I)cc1)C(=O)CCc1cn(Cc2ccccc2)nn1.[C-]#[O+].[C-]#[O+].[C-]#[O+].[Mn+]` is recorded as “inactive” (Bacillus subtilis, Staphylococcus aureus; MIC; including MRSA; up to 512 µg/mL).
With `CN(C)c1cc(CNC2CCCCC2)c(O)c2c1C[C@H]1C[C@H]3[C@H](N(C)C)C(O)=C(C(N)=O)C(=O)[C@@]3(O)C(O)=C1C2=O` the MIC was 1 µg/mL (≈ 1.76 µM) (Enterococcus faecalis; JH2-2(pMV158), Tet L efflux).
Under “inhibition zone diameter”, `CC(=O)[O-].O.O.O.O.[Ni+2].[O-]c1ccc(Br)cc1C=NCCN1CCOCC1` is recorded as 26 mm (Mucor indicus; 20 µL of 100 µM per disc).
